{"data": "Measurements gathered from unrelated publications", "B1": "SABP2 A105N (Nicotiana tabacum, UniProt Q6RYA0); chain MKEGKHFVLVHGACHGGWSWYKLKPLLEAAGHKVTALDLAASGTDLRKIEELRTLYDYTLPLMELMESLSADEKVILVGHSLGGMNLGLAMEKYPQKIYAAVFLNAFMPDSVHNSSFVLEQYNERTPAENWLDTQFLPYGSPEEPLTSMFFGPKFLAHKLYQLCSPEDLALASSLVRPSSLFMEDLSKAKYFTDERFGSVKRVYIVCTEDKGIPEEFQRWQIDNIGVTEAIEIKGADHMAMLCEPQKLCASLLEIAHKYN", "B2": "enzyme (Klebsiella pasteurii, UniProt A0A9Q9S525); chain MSDAKAKITLGGDTAIELDVLKGTLGQDVIDIRSLGSKGVFTFDPGFTSTASCESKITFIDGDEGILLHRGFPIDQLATDSNYLEVCYILLNGEKPTQAQYDEFKTIVTRHTMIHEQITRLFHAFRRDSHPMAVMCGITGALAAFYHDSLDVNNPRHRDIAAFRLLSKMPTMAAMCYKYSIGQPFVYPRNDLSYAGNFLNMMFSTPCEKYEVNPILERAMDRILILHADHEQNASTSTVRTAGSSGANPFACIAAGIASLWGPAHGGANEAALKMLEEISSVEHIPEFVRRAKDKNDSFRLMGFGHRVYKNYDPRATVMRETCHEVLKELGTKDDLLEVAMELEHIALNDPYFIEKKLYPNVDFYSGIILKAMGIPSSMFTVIFAMARTVGWIAHWNEMHSDGMKIARPRQLYTGYEKRDFKNDIAR", "B3": "enzyme N219A (Arabidopsis thaliana, UniProt Q9LJK1); chain EKCQEWLERVDSVTYSRDFTKDPIFISGSNKDFKSCSVDCVMGFTSDKKPDAAFGLSHQPGTLSIIRSMESAQYYQENNLAQARRKGYDIVMTTSLSSDVPVGYFSWAEYDIMAPVQPKTEKALAAAFISACAARNFRLQALEALMKTNVKIDSYGGCHRNRDGSVEKVEALKHYKFSLAFENTNEEDYVTEKFFQSLVAGSVPVVVGAPNIEEFAPSPDSFLHIKQMDDVKAVAKKMKYLADNPDAYNQTLRWKHEGPSDSFKALIDMAAVHSSCRLCIFVATRIREQEEKSPEFKRRPCKCTRGSETVYHLYVRERGRFDMESIFLKDGNLTLEALESAVLAKFMSLRYEPIWKKERPASLRGDGKLRVHGIYPIGLTQRQALYNFKFEGNSSLSTHIQRNPCPKFEVVFV", "B4": "Comt (Rattus norvegicus, UniProt P22734); chain MPLAAVSLGLLLLALLLLLRHLGWGLVTIFWFEYVLQPVHNLIMGDTKEQRILRYVQQNAKPGDPQSVLEAIDTYCTQKEWAMNVGDAKGQIMDAVIREYSPSLVLELGAYCGYSAVRMARLLQPGARLLTMEMNPDYAAITQQMLNFAGLQDKVTILNGASQDLIPQLKKKYDVDTLDMVFLDHWKDRYLPDTLLLEKCGLLRKGTVLLADNVIVPGTPDFLAYVRGSSSFECTHYSSYLEYMKVVDGLEKAIYQGPSSPDKS", "B5": "acsA (Pseudomonas chlororaphis, UniProt Q5CD72); chain MRDYEHVVESFDYLQSATQDLHGELTALNACVECCDRHAHGEAVALYCEAQDGHAERYRFRDLQRQAARFGNFLREQGVKPGDRVAGLMPRTVELLIAILGTWRIGAVYQPLFTAFGPKAIEQRLNCSNARWIVTDPHNRPKLDDVTDCPSIVVTGGAPQNPADHHFWSALNRQADDCAPVLLDASAPFLLMCTSGTTGPAKPLEVPLSAILAFKGYMRDAIDLRADDRFWNLADPGWAYGLYYAVTGPLACGYATLFYDGPFTVESTRHIIAKYAINNLAGSPTAYRFLIAAGAEFADAVRGRLRAVSSAGEPLNPQVVRWFAEQLGVVIHDHYGQTEIGMVLCNHHGLRHPVREGSAGYAVPGYRIVVLDKAHRELPAGQPGVLAVDRERSPLCWFDGYLGMPTQAFAGRYYLSGDIVELNDDGSISFVGRNDDLITTSGYRVGPFDVESALIEHPAVVEAAVIGKPDPQRTELIKAFVVLNTPYLPSPELAEELRLHVRQRLAAHAYPREMEFVDHLPKTPSGKLQRFILRNQEIAKQQALG", "note": "Each line is one published result; not all experiments were run side by side."}
{"Molecule": "enzyme (Pseudomonas aeruginosa, UniProt Q9I5Q5)", "target or system": "Nc1ncnc2c1ncn2[C@@H]1O[C@H](COP(=O)(O)OP(=O)(O)OP(=O)(O)O)[C@@H](O)[C@H]1O", "assay": "steady-state kinetics", "setting": "pH 7.5, apparent, added: MgCl2", "endpoint": "Km", "value": "96 µM"}
{"Molecule": "bglA (Acetivibrio thermocellus, UniProt P26208)", "target or system": "O=[N+]([O-])c1ccc(O[C@@H]2OC[C@H](O)[C@H](O)[C@H]2O)cc1", "assay": "steady-state kinetics", "setting": "pH 5.5, 60 °C", "endpoint": "Km", "value": "1510 µM"}
{"Molecule": "B1 (SABP2 A105N)", "target or system": "CC(=O)Oc1ccc([N+](=O)[O-])cc1", "assay": "steady-state kinetics", "setting": "pH 7.2, 22 °C", "endpoint": "Km", "value": "3000 µM"}
{"Molecule": "enzyme (UniProt F0RRL2)", "target or system": "O=P(O)(O)O[C@H]1O[C@H](CO)[C@@H](O)[C@H](O)[C@H]1O", "assay": "steady-state kinetics", "setting": "pH 5.5, 37 °C, apparent", "endpoint": "Km", "value": "25200 µM"}
{"Molecule": "SLLQWIAQV", "target or system": "Jurkat T cells expressing 1G4 TCR", "assay": "NFAT-eGFP reporter, fluorescence microscopy", "test system": "peptide", "setting": "concentration not given, HLA-A*02:01 NY-ESO system", "endpoint": "reporter activation", "value": "25.1%"}
{"Molecule": "enzyme (Thermothielavioides terrestris, UniProt G2R650)", "target or system": "Oc1cc(O)cc(/C=C/c2ccc(O)c(O)c2)c1", "assay": "steady-state kinetics", "setting": "pH 8, 45 °C", "endpoint": "Km", "value": "191 µM"}
{"Molecule": "B2 (enzyme)", "target or system": "O=C(O)CC(=O)C(=O)O", "assay": "steady-state kinetics", "setting": "pH 7.5, 30 °C, apparent", "endpoint": "Km", "value": "89 µM"}
{"Molecule": "B3 (enzyme N219A)", "target or system": "C[C@@H]1O[C@H](OP(=O)(O)OP(=O)(O)OC[C@H]2O[C@@H](n3cnc4c(=O)[nH]c(N)nc43)[C@H](O)[C@@H]2O)[C@@H](O)[C@H](O)[C@@H]1O", "assay": "steady-state kinetics", "setting": "pH 6.5, 30 °C", "endpoint": "Km", "value": "330 µM"}
{"Molecule": "human LDL receptor", "assay": "co-immunoprecipitation", "test system": "human RBC membrane", "setting": "unit not given, added: Band 3 peptide 1-56 bait", "scale": "reference: negative control", "endpoint": "co-IP enrichment", "value": 0}
{"Molecule": "B4 (Comt)", "target or system": "Cc1cc(=O)oc2c(O)c(O)ccc12", "assay": "steady-state kinetics", "setting": "pH 7.4, 37 °C, not purified", "endpoint": "Km", "value": "1.7 µM"}
{"Molecule": "enzyme (Nicotiana tabacum, UniProt A0A1S3XCJ5)", "target or system": "O=C(O)[C@H](O)CO", "assay": "steady-state kinetics", "setting": "pH 7.8, 30 °C", "endpoint": "Km", "value": "410 µM"}
{"Molecule": "AGTGAGTGAGTG (dsDNA)", "target or system": "Fibroin-modulator-binding protein-1 99-193 (Bombyx mori, UniProt Q5FBS0)", "assay": "ITC", "test system": "double-stranded DNA, one strand shown", "endpoint": "Kd", "value": "6.51 µM"}
{"Molecule": "B5 (acsA)", "target or system": "O=C(O)CCC(F)(F)F", "assay": "steady-state kinetics", "setting": "pH 7", "endpoint": "Km", "value": "2000 µM"}
{"Molecule": "human GAPDH", "assay": "co-immunoprecipitation", "test system": "human RBC cytosol", "setting": "DMTMM crosslinker, unit not given, added: Band 3 peptide 1-56 bait", "scale": "reference: negative control", "endpoint": "co-IP enrichment", "value": 909}
{"Molecule": "ALLQWIAIL", "target or system": "Jurkat T cells expressing 1G4 TCR", "assay": "NFAT-eGFP reporter, fluorescence microscopy", "test system": "peptide", "setting": "concentration not given, HLA-A*02:01 NY-ESO system", "endpoint": "reporter activation", "value": "0.0108%"}
{"note": "Some of these lines once more:"}
{"Molecule": "B5 (acsA)", "target or system": "O=C(O)CCC(F)(F)F", "assay": "steady-state kinetics", "setting": "pH 7", "endpoint": "Km", "value": "2000 µM"}
{"Molecule": "human GAPDH", "assay": "co-immunoprecipitation", "test system": "human RBC cytosol", "setting": "DMTMM crosslinker, unit not given, added: Band 3 peptide 1-56 bait", "scale": "reference: negative control", "endpoint": "co-IP enrichment", "value": 909}
